Measured values pooled from the literature.
Lines come from different studies, so protocols differ. ± gives the spread as reported.
Sequence of UniProt P06276 (whole entry, looked up): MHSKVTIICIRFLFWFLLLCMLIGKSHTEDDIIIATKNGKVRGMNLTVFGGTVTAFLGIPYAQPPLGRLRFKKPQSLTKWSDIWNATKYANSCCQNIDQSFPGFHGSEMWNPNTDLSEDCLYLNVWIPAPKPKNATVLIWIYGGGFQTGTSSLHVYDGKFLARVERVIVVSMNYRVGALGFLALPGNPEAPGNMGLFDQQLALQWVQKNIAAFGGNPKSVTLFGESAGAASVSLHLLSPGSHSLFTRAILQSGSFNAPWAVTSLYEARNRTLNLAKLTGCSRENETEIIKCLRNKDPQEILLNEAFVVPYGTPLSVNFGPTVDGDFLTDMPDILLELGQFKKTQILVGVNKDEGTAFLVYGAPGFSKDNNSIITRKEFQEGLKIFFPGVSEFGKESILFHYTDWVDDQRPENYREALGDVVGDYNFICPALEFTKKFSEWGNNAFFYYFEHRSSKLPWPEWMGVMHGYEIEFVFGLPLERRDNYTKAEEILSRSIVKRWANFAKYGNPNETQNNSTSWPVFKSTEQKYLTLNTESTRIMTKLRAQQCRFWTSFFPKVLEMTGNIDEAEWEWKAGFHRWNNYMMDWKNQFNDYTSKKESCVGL

Compound | tested on | test | system | setting | how to read | quantity | result
CN(C)CCCC1(c2ccc(F)cc2)OCc2cc(C#N)ccc21 (stereo not drawn) | Plasmodium falciparum | – | 7G8 | – | – | IC50 | 6.31 µM
Nc1ccc2cc3ccccc3cc2c1 | Salmonella typhimurium | Ames test, confirmatory | TA1535 | 1.0 µg/plate, together with: rat liver S9 | relative to: solvent control | revertant ratio | 5.2
O[C@@H](CNCCN1CCN(C(c2ccccc2)c2ccccc2)CC1)c1cc(Cl)cc2c1-c1ccc(Cl)cc1C2 | Plasmodium falciparum | – | W2 | – | relative to: HepG2 CC50 over IC50 | selectivity index | 2080
O=[N+]([O-])c1ccc(NC2CCNCC2)c(C(F)(F)F)c1 | Salmonella typhimurium | SOS/umu test | TA1535/pSK1002 | 0.25 mg/mL, 4 h, without S9, full range | – | survival | 75%
Cc1cc(C(=O)NC(C)(C)COc2cccc3c2C(N)=NS(=O)(=O)N3)cc(C)n1 | Escherichia coli | Ames test, initial | WP2 uvrA | 5000 µg/plate, together with: rat liver S9 | relative to: solvent control | revertant ratio | 1
[Cl-].[Cl-].[Pt+2].[Ru+2].c1ccc(-c2nc3cc4ccccc4cc3nc2-c2ccccn2)nc1.c1cnc2c(c1)ccc1cccnc12.c1cnc2c(c1)ccc1cccnc12 | Danio rerio | – | embryos | 90 µM, 48 h | – | hatching rate | 0%
CN(C)CCOC(C)(c1ccccc1)c1ccccn1 (stereo not drawn) | Plasmodium falciparum | – | Dd2 | – | – | IC50 | 10 µM
COc1cccc(-c2n[nH]c(SCc3ccccn3)n2)c1OC | Escherichia coli | Ames test, plate incorporation | WP2 uvrA | 5.0 mg/plate, with rat liver S9 | – | revertant colonies per plate | 37
O=[N+]([O-])c1ccc(N2CCN(CCC(O)c3ccc(F)cc3)CC2)c(C(F)(F)F)c1 (stereo not drawn) | Salmonella typhimurium | genotoxicity, SOS/umu test | TA1535/pSK1002 | 0.25 mg/mL, 4 h, with S9, lower range | – | induction factor | 0.6
[Cl-].[Cl-].[Pt+2].[Ru+2].c1ccc(-c2nccnc2-c2ccccn2)nc1.c1cnc2c(c1)ccc1cccnc12.c1cnc2c(c1)ccc1cccnc12 | Danio rerio | – | embryos | 90 µM, 24 h | – | survival rate | 40 ± 4.1%
C[N+](C)(CCOc1ccccc1)Cc1cccs1 | Cholinesterase (BCHE, Homo sapiens, UniProt P06276) | inhibitor | – | – | – | IC50 | 3.31 ± 0.22 µM
Fc1ccc(C2=CCNCC2)cc1 | Salmonella typhimurium | genotoxicity, SOS/umu test | TA1535/pSK1002 | 0.002 mg/mL, 4 h, without S9, full range | – | induction factor | 0.9
[Cl-].[Cl-].[Pt+2].[Ru+2].c1ccc(-c2nc3ccccc3nc2-c2ccccn2)nc1.c1cnc2c(c1)ccc1cccnc12.c1cnc2c(c1)ccc1cccnc12 | Danio rerio | – | embryos | 45 µM, 48 h | – | survival rate | 80 ± 3%
CC(=O)N1CCC(C(=O)N2CCN3C(=O)c4cc(-c5ccccc5)ccc4NC(=O)C3C2)CC1 (stereo not drawn) | Escherichia coli | – | WP2 uvrA | 158 µg/plate, with rat liver S9 | relative to: vehicle | revertant fold increase | 0.8
OC(CCN1CC=C(c2ccc(F)cc2)CC1)c1ccc(F)c2ccccc12 (stereo not drawn) | Salmonella typhimurium | SOS/umu test | TA1535/pSK1002 | 0.016 mg/mL, 4 h, without S9, full range | – | survival | 21.8%

For quick reference, copied from above:
Compound | tested on | test | system | setting | how to read | quantity | result
Fc1ccc(C2=CCNCC2)cc1 | Salmonella typhimurium | genotoxicity, SOS/umu test | TA1535/pSK1002 | 0.002 mg/mL, 4 h, without S9, full range | – | induction factor | 0.9
